{"data": "Results from different studies", "T1": "TFAM/TFB2M 43-245; 21-396 (Homo sapiens); chain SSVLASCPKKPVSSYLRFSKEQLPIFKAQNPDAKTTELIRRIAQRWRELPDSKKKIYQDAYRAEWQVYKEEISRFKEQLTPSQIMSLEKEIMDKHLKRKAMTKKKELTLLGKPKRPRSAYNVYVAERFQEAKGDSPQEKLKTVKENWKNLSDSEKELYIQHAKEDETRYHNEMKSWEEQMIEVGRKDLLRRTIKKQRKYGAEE; chain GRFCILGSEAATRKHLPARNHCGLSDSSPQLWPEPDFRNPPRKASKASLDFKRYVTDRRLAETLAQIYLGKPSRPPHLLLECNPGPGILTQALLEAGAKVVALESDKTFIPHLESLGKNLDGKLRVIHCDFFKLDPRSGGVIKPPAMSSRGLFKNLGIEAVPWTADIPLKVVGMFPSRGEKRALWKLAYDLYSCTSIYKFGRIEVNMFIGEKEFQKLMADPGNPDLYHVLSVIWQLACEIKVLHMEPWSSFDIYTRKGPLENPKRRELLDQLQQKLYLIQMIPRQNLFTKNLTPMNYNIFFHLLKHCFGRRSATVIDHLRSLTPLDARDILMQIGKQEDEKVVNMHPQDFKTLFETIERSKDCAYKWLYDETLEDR", "P1": "ZYX; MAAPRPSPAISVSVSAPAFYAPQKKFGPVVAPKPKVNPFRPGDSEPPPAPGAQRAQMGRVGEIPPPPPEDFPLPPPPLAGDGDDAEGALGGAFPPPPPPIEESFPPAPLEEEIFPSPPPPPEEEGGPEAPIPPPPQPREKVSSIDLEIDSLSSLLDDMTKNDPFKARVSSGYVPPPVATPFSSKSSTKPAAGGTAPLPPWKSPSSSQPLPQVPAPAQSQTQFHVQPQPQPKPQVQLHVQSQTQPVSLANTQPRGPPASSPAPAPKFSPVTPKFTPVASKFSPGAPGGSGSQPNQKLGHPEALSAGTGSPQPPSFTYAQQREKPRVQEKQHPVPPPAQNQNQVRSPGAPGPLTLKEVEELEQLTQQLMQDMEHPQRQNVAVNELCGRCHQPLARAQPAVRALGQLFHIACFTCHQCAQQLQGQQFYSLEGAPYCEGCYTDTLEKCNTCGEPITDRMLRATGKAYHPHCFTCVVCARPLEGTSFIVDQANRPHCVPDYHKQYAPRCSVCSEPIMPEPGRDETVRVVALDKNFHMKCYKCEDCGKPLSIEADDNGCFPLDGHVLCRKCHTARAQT", "P2": "SCAP (Homo sapiens); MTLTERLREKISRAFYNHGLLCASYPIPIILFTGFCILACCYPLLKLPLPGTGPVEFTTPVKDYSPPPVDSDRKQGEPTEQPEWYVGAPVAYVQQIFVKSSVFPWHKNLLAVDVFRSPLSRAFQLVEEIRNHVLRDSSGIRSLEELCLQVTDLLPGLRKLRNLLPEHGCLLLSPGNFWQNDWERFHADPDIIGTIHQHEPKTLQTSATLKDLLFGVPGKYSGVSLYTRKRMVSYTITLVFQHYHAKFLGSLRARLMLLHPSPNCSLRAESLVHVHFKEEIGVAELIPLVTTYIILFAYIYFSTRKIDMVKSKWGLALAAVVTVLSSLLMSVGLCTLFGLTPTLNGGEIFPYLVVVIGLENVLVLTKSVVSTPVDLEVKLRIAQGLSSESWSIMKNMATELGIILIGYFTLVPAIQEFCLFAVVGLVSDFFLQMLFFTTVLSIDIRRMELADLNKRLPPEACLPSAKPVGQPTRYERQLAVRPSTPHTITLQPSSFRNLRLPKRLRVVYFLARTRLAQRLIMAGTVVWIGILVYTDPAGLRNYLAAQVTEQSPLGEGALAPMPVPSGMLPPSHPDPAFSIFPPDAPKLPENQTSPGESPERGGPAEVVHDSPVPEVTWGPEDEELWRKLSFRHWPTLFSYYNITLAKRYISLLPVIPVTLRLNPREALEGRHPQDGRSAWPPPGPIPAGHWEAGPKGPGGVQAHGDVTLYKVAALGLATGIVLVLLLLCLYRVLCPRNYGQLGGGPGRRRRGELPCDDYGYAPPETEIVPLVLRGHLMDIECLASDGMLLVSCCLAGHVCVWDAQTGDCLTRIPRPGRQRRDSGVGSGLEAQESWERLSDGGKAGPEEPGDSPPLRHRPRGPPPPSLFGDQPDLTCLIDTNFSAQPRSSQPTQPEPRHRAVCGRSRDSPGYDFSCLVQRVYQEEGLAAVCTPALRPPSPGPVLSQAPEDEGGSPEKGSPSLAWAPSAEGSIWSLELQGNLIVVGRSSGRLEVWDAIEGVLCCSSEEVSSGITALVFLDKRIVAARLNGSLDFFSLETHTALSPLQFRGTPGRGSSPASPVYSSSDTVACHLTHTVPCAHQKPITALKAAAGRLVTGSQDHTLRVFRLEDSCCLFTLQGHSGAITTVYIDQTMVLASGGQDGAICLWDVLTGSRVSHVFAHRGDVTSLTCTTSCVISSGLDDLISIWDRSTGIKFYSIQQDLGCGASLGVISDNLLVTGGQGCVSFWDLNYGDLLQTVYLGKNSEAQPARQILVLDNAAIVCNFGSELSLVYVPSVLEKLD; partner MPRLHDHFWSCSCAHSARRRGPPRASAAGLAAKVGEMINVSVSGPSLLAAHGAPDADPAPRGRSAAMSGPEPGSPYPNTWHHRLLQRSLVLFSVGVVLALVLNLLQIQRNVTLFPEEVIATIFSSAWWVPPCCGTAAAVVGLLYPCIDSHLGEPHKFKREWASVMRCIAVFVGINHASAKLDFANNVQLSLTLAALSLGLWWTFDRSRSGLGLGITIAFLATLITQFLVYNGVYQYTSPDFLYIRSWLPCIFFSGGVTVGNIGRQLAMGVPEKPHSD", "note": "Lines come from different studies, so protocols differ. Positions count from the first letter of the parent shown. ± gives the spread as reported.", "sequence of UniProt P11362 (whole entry, looked up)": "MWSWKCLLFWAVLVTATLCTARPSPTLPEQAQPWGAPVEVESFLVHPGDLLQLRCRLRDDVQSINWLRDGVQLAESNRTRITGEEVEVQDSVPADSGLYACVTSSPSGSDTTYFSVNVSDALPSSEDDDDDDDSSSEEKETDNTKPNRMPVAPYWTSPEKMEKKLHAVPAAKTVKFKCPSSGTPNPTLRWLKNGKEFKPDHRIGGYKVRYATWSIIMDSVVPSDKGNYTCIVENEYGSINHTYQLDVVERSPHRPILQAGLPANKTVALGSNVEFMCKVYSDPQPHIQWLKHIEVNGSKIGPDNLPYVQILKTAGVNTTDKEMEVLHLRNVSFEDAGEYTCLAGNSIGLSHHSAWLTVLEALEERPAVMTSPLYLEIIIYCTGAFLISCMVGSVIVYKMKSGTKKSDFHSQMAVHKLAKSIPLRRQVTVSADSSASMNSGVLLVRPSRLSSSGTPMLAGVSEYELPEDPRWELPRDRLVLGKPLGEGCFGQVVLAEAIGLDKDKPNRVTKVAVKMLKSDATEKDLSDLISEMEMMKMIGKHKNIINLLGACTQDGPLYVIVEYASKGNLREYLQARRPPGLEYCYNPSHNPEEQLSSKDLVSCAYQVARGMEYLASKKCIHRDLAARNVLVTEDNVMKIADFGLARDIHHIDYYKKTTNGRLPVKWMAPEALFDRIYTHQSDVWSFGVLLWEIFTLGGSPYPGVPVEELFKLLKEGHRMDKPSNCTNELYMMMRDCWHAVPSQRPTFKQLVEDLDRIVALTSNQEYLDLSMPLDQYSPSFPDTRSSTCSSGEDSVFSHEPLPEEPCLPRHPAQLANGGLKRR", "sequence of UniProt P93024 (whole entry, looked up)": "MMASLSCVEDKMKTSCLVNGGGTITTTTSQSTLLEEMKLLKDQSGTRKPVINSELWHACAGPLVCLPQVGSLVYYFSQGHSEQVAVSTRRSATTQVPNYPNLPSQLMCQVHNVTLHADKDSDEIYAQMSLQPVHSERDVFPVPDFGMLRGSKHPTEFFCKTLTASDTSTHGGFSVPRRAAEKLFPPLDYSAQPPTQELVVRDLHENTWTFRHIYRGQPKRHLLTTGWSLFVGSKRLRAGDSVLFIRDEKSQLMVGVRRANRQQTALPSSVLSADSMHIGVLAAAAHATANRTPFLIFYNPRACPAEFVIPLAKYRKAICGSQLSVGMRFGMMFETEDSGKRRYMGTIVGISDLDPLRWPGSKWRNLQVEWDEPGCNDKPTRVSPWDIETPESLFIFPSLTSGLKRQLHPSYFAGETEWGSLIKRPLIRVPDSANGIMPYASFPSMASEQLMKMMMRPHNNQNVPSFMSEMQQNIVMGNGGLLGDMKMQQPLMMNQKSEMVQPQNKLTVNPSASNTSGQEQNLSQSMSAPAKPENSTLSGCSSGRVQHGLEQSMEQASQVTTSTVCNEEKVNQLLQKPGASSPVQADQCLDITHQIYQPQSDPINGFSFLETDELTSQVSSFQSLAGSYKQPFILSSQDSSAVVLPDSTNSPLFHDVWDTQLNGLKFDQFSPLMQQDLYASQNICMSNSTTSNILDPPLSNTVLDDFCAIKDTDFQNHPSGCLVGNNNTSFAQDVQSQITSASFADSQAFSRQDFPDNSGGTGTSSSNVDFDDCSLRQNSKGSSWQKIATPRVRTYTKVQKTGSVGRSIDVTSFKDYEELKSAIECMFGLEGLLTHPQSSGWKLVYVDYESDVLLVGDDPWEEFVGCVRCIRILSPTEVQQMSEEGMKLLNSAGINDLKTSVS"}
{"Substance": "P1 S142D S169C", "tested on": "YWHAG", "assay": "GST pull-down", "system": "lysate", "how to read": "relative to: unchanged protein, higher = more binding", "endpoint": "relative binding", "result": 3.35}
{"Substance": "P2 L343A", "tested on": "INSIG1 (Homo sapiens)", "assay": "co-IP", "setting": "read off a plot, added: 25-HC", "how to read": "higher = more binding", "endpoint": "signal", "result": 0.28}
{"Substance": "GAGCTGTATCGTCTTGACTG (dsDNA (Trichomonas vaginalis); 20-mer duplex)", "tested on": "MYB21 40-156 K138A (Trichomonas vaginalis, UniProt Q58HP3)", "assay": "ITC", "system": "double-stranded DNA, one strand shown", "endpoint": "Kd", "result": "2030 nM"}
{"Substance": "GGAUGCCUCCCGAGUGCAUCC (structured RNA)", "tested on": "FKBP3 1-74 (Homo sapiens, UniProt Q00688)", "assay": "NMR", "system": "folded RNA", "endpoint": "binding", "result": "binds"}
{"Substance": "TGTGTTAGTTGGGGGGTGACTGTTAAAAGTGCATACCGCCAAAAGATAAAA (dsDNA)", "tested on": "T1, TFAM/TFB2M 43-245; 21-396 (Homo sapiens)", "assay": "fluorescence anisotropy", "system": "double-stranded DNA, one strand shown", "endpoint": "Kd", "result": "6.48 nM"}
{"Substance": "AGTCTTTTTGGTCTCTGGTCGGTCGACAATCCGTGTG (dsDNA; 5-C6-amino-dT labels)", "tested on": "ARF5 1-390 (Arabidopsis thaliana, UniProt P93024)", "assay": "smFRET kinetics", "system": "double-stranded DNA, one strand shown", "endpoint": "Kd", "result": "15 nM"}
{"Substance": "RNA 1 AGGGUCUCCAUUUUGAAGCAUGC / RNA 2 GCAUGCUUCAAAAUGGAGACCCU (dsRNA 23 bp duplex)", "tested on": "FKBP3 1-224 (Homo sapiens, UniProt Q00688)", "assay": "EMSA", "system": "double-stranded RNA", "setting": "apparent", "endpoint": "Kd", "result": "122000 ± 8000 nM"}
{"Substance": "GTATACCTGCAGCTGAGGCGAGCCGTTGGTGTGGATGGCAGGGGCAGGATTCGACTCTAGAGCGCA (ssDNA; stem-loop)", "tested on": "FGFR1 22-376 (Homo sapiens, UniProt P11362)", "assay": "MST", "system": "single-stranded DNA", "setting": "added: Mg2+ 5 mM", "endpoint": "Kd", "result": "1520 ± 470 nM"}
{"Substance": "ACACAGACGTACTATCATGACGCATCAGACAAC (ssDNA)", "tested on": "RPA1/RPA2/RPA3 heterotrimer, Cy5 label (Homo sapiens)", "assay": "FRET titration", "setting": "approximate", "endpoint": "Kd", "result": "< 0.1 nM"}
{"Substance": "GAAGATAACGATATTTAAAA (dsDNA (Trichomonas vaginalis); 20-mer duplex)", "tested on": "MYB21 40-156 R87A (Trichomonas vaginalis, UniProt Q58HP3)", "assay": "ITC", "system": "double-stranded DNA, one strand shown", "endpoint": "Kd", "result": "15200 nM"}
{"note": "Some of these lines once more:"}
{"Substance": "P1 S142D S169C", "tested on": "YWHAG", "assay": "GST pull-down", "system": "lysate", "how to read": "relative to: unchanged protein, higher = more binding", "endpoint": "relative binding", "result": 3.35}
